Results of several laboratories.
Parts stem from different laboratories: compare values within a part only. Positions count from the first letter of the parent shown.

Series 1
Target: Centromere-binding protein 1, full length, N-terminal tag (CBF1, Saccharomyces cerevisiae, UniProt P17106, residues 1-351)
Chain of UniProt P17106 (whole entry, looked up): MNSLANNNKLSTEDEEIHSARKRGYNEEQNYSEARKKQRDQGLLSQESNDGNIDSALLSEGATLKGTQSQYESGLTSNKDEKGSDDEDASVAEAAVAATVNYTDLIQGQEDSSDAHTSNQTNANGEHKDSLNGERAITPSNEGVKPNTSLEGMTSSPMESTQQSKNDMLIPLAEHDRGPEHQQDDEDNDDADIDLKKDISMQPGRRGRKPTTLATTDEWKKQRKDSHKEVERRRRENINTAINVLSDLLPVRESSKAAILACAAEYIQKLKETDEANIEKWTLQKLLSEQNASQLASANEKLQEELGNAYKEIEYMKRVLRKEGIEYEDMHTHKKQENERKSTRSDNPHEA
Method: protein-binding microarray
Molecule type: double-stranded DNA, one strand shown
Medium: in vitro
Tested at: 0.8 µM
Notes: whole 60-bp probe, no competitor
Reading: higher = stronger binding
`GAACAGGAACGTAAGGAGGTGATGGAAGAACAGTAGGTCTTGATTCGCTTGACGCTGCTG` has a fluorescence intensity of 527 a.u.
For `GAACTTCGTCGTCTTCATGATCACCTTTATTGTTAGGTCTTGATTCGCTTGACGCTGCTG`, the fluorescence intensity was 544 a.u.
`GAAATAGGTATTCATATCGTGAACTGCGCAACTTAGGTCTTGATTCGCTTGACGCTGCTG` has a fluorescence intensity of 526 a.u.
With `CTACATCAATTCCATCACCCTGTCATTCAACTCTTCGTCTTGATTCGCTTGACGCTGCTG` the fluorescence intensity was 547 a.u.
With `GAACGCTAAGATTTTCACGTGCTCATCAATGTGTAGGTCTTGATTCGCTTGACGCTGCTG` the fluorescence intensity was 7900 a.u.
With `CTAAACAGTCGCCCACACGTTCCCTCTTTTTTTTTCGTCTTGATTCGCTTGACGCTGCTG` the fluorescence intensity was 532 a.u.
`GAATCGAAAGAAGGCCGCATGACGTGGAGCAATTAGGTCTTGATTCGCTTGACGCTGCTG` has a fluorescence intensity of 581 a.u.
`CTAAATCAGTTAGGTGTCATGATATTGATACATTTCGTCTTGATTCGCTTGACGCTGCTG` gave a fluorescence intensity of 602 a.u.
For `CTAGATGATGACGACCACGACAACTGGTGTCATTTCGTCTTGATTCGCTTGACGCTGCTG`, the fluorescence intensity was 488 a.u.
`GAAAAGTGGGTATCTCACATGGTTTTGATTGGGTAGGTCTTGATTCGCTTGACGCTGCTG` gave a fluorescence intensity of 632 a.u.

Series 2
Target: CCNB2, cyclin fold, Cln2 fusion (human)
Method: yeast growth competition, sequencing
Medium: yeast
Notes: weak parent motif
Reference: not given
Reading: higher = stronger binding
Starting sequence: ORC1 docking peptide (human); PRARKRLELGNLG; partner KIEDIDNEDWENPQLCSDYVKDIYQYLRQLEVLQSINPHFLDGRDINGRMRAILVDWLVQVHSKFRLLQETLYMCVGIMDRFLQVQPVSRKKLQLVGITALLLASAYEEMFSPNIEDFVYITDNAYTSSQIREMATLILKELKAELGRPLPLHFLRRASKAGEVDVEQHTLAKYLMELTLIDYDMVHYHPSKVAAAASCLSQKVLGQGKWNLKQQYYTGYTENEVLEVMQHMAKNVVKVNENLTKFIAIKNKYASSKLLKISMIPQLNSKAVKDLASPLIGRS
For `L9P`, “normalised enrichment score” read 0.205.
`N11Y`: “normalised enrichment score” 1.17.
Under “normalised enrichment score”, `L7S` is recorded as 0.804.
For `R4S`, “normalised enrichment score” read 0.459.
Under “normalised enrichment score”, `N11D` is recorded as 0.237.
For `R2C`, “normalised enrichment score” read 0.0663.
For `N11Q`, “normalised enrichment score” read -0.287.

Series 3
Target: Histone acetyltransferase KAT6A, both winged helices, GST fusion (KAT6A, Homo sapiens, UniProt Q92794, residues 1-181)
Method: protein binding microarray
Molecule type: double-stranded DNA, one strand shown
Medium: in vitro
Tested at: not given
Notes: 8-mer, flanks averaged, mean of 2 arrays, mostly near background
Reference: not given
Reading: higher = stronger binding
Target sequence (chain): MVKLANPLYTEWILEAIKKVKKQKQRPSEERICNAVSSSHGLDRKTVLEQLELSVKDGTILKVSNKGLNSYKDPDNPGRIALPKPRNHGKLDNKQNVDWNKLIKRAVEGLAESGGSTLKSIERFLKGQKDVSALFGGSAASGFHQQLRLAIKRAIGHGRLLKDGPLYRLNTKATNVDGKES
`AATCAAAT` gave an E-score of 0.0226.
`ATCGCTGA` gave an E-score of -0.0188.
With `TTATGGAA` the E-score was -0.158.
`GCGTTGAC` has an E-score of 0.0131.
`CCTGTGAG` gave an E-score of -0.173.
The E-score of `GAGTGCAA` is reported as -0.112.
`AACGAAGA` has an E-score of -0.0734.
`ATTGACCG` gave an E-score of 0.25.
`CCTCGACG` gave an E-score of 0.00843.
For `CAAGTCTA`, the E-score was -0.177.

Mixed results
`PhoQ, residues 284 288 289 292 302 303 DDMDFR` has a fold induction of 0.467 (PhoP, residues 12 14 15 18 19 IQFRS (Escherichia coli, UniProt P23836); Sort-seq, item: YFP reporter; E. coli; PhoQ-PhoP variant library, with: 10 µM Mg2+; reference: high Mg2+ state, higher = stronger signaling).
